Measurements pooled from the literature.
“And” joins repeats or separate records; there may be more than shown. ± gives the spread as reported. Values after ≈ are worked out from the molar mass of the structure shown.

Protein sequences, listed by entry. Tags and fused reporters are not part of them.
UniProt Q9HBY8, whole entry: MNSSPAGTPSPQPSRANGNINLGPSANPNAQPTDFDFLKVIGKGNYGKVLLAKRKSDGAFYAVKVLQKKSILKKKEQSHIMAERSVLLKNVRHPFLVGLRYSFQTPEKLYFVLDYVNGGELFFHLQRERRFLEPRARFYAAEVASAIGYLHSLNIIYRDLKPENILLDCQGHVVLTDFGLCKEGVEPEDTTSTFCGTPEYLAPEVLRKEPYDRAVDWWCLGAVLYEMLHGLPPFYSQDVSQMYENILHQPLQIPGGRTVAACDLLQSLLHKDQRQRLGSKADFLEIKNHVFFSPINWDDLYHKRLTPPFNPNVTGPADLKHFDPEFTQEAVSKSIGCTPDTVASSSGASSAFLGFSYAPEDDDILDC

| SMILES | target or system | assay | test system | setting | scale | measurement | value |
| --- | --- | --- | --- | --- | --- | --- | --- |
| O=c1ccc2nc3ccc(OCc4ccc([N+](=O)[O-])cc4)cc3oc-2c1 | Mycobacterium tuberculosis |  | mc2 6206 PA-824-resistant ddn mutant | 7 days |  | MIC90 | > 256 µM |
| CCOC(=O)OCOc1c(-c2ccc(Oc3ccc(OC(F)(F)F)cc3)cc2)c(C)nc2cc(OC)c(Cl)cc12 | Plasmodium yoelii | parasitemia suppression | mouse | oral, 4 days, PEG-400 vehicle |  | ED50 | 0.02 mg/kg/day |
| C1CCC2(C1)OOCOCOOC1(CCCC1)OO2 | U-937 | cytotoxicity, 7-AAD flow cytometry |  |  |  | IC50 | 5.93 ± 0.21 µM |
| O=C(N/N=C/c1cc([N+](=O)[O-])ccc1O)c1ccc(O)cc1O | SK-OV-3 GFP knock-out control | cell counting |  | 10 µM, 6 d |  | cell growth | decreased |
| CCN(CC)C(=O)Oc1ccc(C(=O)Nc2cccc3cc[nH]c23)cc1 |  | NMDA receptor EPSC, inhibitor, whole-cell patch clamp | CA1 interneurons, mouse, hippocampal slices | 10 µM | baseline: control | charge transfer | 63 ± 9.7% |
| NNC(=O)c1ccncc1 | Mycobacterium bovis |  | BCG Tac^r9.1, thyA S125P missense | TA-C-resistant thyA mutant |  | MIC50 | 0.4 µM (≈ 0.0549 µg/mL) |
| O=C1C=C(NCCc2cc(Br)c(O)c(Br)c2)C(=O)c2ncccc21 |  |  | BALB/c mice, K7M2 lung metastasis | ip, 0.226 mg/kg/day, 5 days per week | up to | survival time | ≤ 49 days |
| C(CCCCCN1COOC2(CCCCCC2)OOC2(CCCCCC2)OOC1)CCCCN1COOC2(CCCCCC2)OOC2(CCCCCC2)OOC1 | Jurkat | annexin V/7-AAD |  | 3.0 µM, 24 h |  | late apoptotic cells | 53.7% |
| Cc1cc(N(CCCl)CCCl)ccc1C(=O)O | A498 | cell growth, inhibitor, MTT |  |  |  | IC50 | 6.57 µg/mL |
| CCCCCCCCCCCCCC(=S)NCCCC[C@H](NC(=O)OCc1ccccc1)C(=O)Nc1cccc(O)c1 | NCI-H23 | cell growth |  |  |  | GI50 | 6.6 ± 0.3 µM |
| CC#C/C(=N\OC[C@H]1COCCN1)c1ccc2ncnc(Nc3ccc(OCc4cccc(F)c4)c(Cl)c3)c2c1 | MDA-MB-453 | cell growth, WST-8 |  | 72 h |  | IC50 | 0.0486 ± 0.0031 µM |
| O=C(C1CC1)N1CC2CC(C1)N2 |  | forepaw asymmetry test | rat, unilateral 6-OHDA lesion |  |  | forelimb use asymmetry | no effect |
| Nc1ccc(C(=O)O)c(O)c1 | Mycobacterium bovis |  | BCG Tac^r9.1, thyA S125P missense | TA-C-resistant thyA mutant |  | MIC50 | > 100 µM |
| CC[C@H](C)[C@@H]1NC(=O)[C@H](CCC(=O)O)NC(=O)[C@@H]2CCCN2C(=O)[C@H](Cc2c[nH]cn2)NC(=O)[C@H](CC(=O)O)NC(=O)[C@H](Cc2ccc(O)cc2)NC(=O)[C@H](CC(N)=O)NC(=O)[C@@H]2CSSC[C@@H]3NC(=O)CNC(=O)CNC(=O)CNC(=O)[C@H](C)NC(=O)[C@H](C)NC(=O)CNC(=O)CNC(=O)[C@H](CSSC[C@H](NC3=O)C(=O)N[C@@H](CO)C(=O)N[C@@H](CC(=O)O)C(=O)N3CCC[C@H]3C(=O)N[C@@H](CCCNC(=N)N)C(=O)N2)NC1=O | Cav2.3c human | Ba2+ current |  | 200 nM |  | inhibition | 28 ± 4% |
| C(CCCCCN1COOC2(CCCC2)OOC2(CCCC2)OOC1)CCCCN1COOC2(CCCC2)OOC2(CCCC2)OOC1 | K562 | cytotoxicity, 7-AAD flow cytometry |  |  |  | IC50 | 3.44 ± 0.17 µM |
| COCOc1ccc2nc3ccc(=O)cc-3oc2c1 | Mycobacterium tuberculosis |  | mc2 6206 clofazimine-resistant fbiC mutant | 7 days |  | MIC90 | 46 µM (≈ 11.8 µg/mL) |
| c1ccc(Nc2cccc3ccccc23)cc1 | Manis javanica OBP3 F52A | binding, fluorescence binding |  | added: 1-NPN probe |  | Kd | 0.43 ± 0.08 µM |
| CC1(C)CCC(Cc2cc(O)c(-c3ccccc3)c(=O)[nH]2)CC1 | Mycobacterium tuberculosis |  | inhA G96V resistant mutant |  |  | MIC50 | > 5 µM |
| Cc1ccc(S(=O)(=O)N(C)CC(=O)N(Cc2ccc(C3CCCCC3)cc2)c2ccc(C(=O)O)c(O)c2)cc1 |  |  | MDA-MB-231 xenograft, athymic nude mouse | intravenous, 3 mg/kg, 17 days, every 2-3 days | baseline: vehicle | tumour growth | decreased |

| SMILES | target or system | assay | test system | setting | scale | measurement | value |
| --- | --- | --- | --- | --- | --- | --- | --- |
| CCc1nc(N)nc(N)c1C#CCc1cc(OC)cc(-c2ccc(C(=O)O)cc2)c1 | Staphylococcus aureus |  | MRSA isolate UCH 127 |  |  | MIC | 5 µg/mL (≈ 12.4 µM) |
| CSc1nc(Cl)cc(Sc2nnc(-c3cc(C(F)(F)F)cc(C(F)(F)F)c3)[nH]2)n1 | Shigella flexneri |  | ATCC 12022 | no additive |  | MIC | > 590 µg/mL |
| O=c1ccc2ccc(OCc3ccc([N+](=O)[O-])o3)cc2o1 | Mycobacterium tuberculosis |  | mc2 6206 bedaquiline-resistant MmpL5 regulator mutant | 7 days |  | MIC90 | 15.6 µM (≈ 4.48 µg/mL) |
| C1CCCC2(CC1)OOCOCOOC1(CCCCCC1)OO2 | U-937 | cytotoxicity, 7-AAD flow cytometry |  |  |  | IC50 | 6.88 ± 0.27 µM |
| COc1ccc2nc3ccc(=O)cc-3oc2c1 | Mycobacterium tuberculosis |  | mc2 6206 bedaquiline-resistant MmpL5 regulator mutant | 7 days |  | MIC90 | 6.6 µM (≈ 1.5 µg/mL) |
| C[C@H]1COc2c(N3CCN(C)CC3)c(F)cc3c(=O)c(C(=O)O)cn1c23 | Staphylococcus aureus topoisomerase IV GrlA S81F |  |  |  |  | concentration of maximal DNA cleavage | 300 µM |
| CCCN1CCN(c2ccc3c(c2)C2CC3CCN2C(=O)OCc2ccccc2)CC1 (stereo not shown) | GABA-A receptor | radioligand binding |  |  |  | Ki | > 10 µM |
| CCCCCCC1c2ccc(O)cc2Oc2cc(O)ccc21 | Escherichia coli |  | MC4100 | added: PMBN 25 µg/mL |  | MIC | 0.9 µg/mL (≈ 3.02 µM) |
| C#Cc1ccc2c(c1)C(c1ccccc1F)=N[C@H](C)c1c(-c3nc(C(C)C)no3)ncn1-2 | sigma-2 receptor | radioligand binding |  | concentration not given, primary screen, added: [3H]ditolylguanidine |  | inhibition | > 50% |
| CCN1CCN(Cc2ccc(NC(=O)c3ccc(C)c(/C=C/c4cnc5[nH]ccc5c4OC)c3)cc2C(F)(F)F)CC1 | Serine/threonine-protein kinase Sgk2 (SGK2, Homo sapiens, UniProt Q9HBY8) | kinase-CDC37 interaction, inhibitor | human cells | 5 µM | baseline: vehicle | log2 fold change | 0.142 |
| COCOc1ccc2nc3ccc(=O)c(I)c-3oc2c1 | Mycobacterium tuberculosis |  | mc2 6206 clofazimine-resistant fbiC mutant | 7 days |  | MIC90 | 16 µM (≈ 6.13 µg/mL) |
| C[C@H]1CCCN1Cc1cc2cnc(NC(=O)c3ccc4c(cnn4C)c3)cc2[nH]1 |  |  | MV4;11 cells, NSG mouse, disseminated xenograft | oral, 200 mg/kg once daily, 28 days |  | median survival | 63 days |
| O=c1ccc2nc3ccc(OCC4CCCOC4)cc3oc-2c1 (stereo not shown) | Mycobacterium tuberculosis |  | mc2 6206 bedaquiline-resistant MmpL5 regulator mutant | 7 days |  | MIC90 | 42 µM (≈ 13.1 µg/mL) |
| CCC(C)C1NC(=O)/C(=C(/C)O)C1=O (stereo not shown) | plasma membrane H+-ATPase (Spinacia oleracea) | ATP hydrolysis, inhibitor | plasma membrane fraction |  |  | IC50 | 0.68 µM and 0.7 µM |
| O=c1ccc2nc3ccc(OCCO)cc3oc-2c1 | Mycobacterium tuberculosis |  | mc2 6206 clofazimine-resistant fbiC mutant | 7 days |  | MIC90 | > 256 µM |
| CC(C)Cc1nnc2c(C(=O)NC3c4ccccc4-c4ccccc43)cccn12 | RNA polymerase β′ D622G, Escherichia coli | enzyme activity, fluorescence |  | lacUV5 promoter | baseline: mutant over wild type | IC50 ratio | 6 |
| O=c1ccc2nc3ccc(OCc4ccc([N+](=O)[O-])o4)cc3oc-2c1I | Mycobacterium tuberculosis |  | mc2 6206 bedaquiline-resistant MmpL5 regulator mutant | 7 days |  | MIC90 | 2.3 µM (≈ 1.07 µg/mL) |
| Cc1c(N2CC[C@@H](CN)C2)c(F)cc2c(=O)n(N)c(=O)n(C3CC3)c12 | Staphylococcus aureus topoisomerase IV GrlA S81Y |  |  |  |  | maximal DNA cleavage | 30.3% |

A few entries again:
| SMILES | target or system | assay | test system | setting | scale | measurement | value |
| --- | --- | --- | --- | --- | --- | --- | --- |
| Cc1cc(N(CCCl)CCCl)ccc1C(=O)O | A498 | cell growth, inhibitor, MTT |  |  |  | IC50 | 6.57 µg/mL |
| O=c1ccc2nc3ccc(OCCO)cc3oc-2c1 | Mycobacterium tuberculosis |  | mc2 6206 clofazimine-resistant fbiC mutant | 7 days |  | MIC90 | > 256 µM |
| O=C(N/N=C/c1cc([N+](=O)[O-])ccc1O)c1ccc(O)cc1O | SK-OV-3 GFP knock-out control | cell counting |  | 10 µM, 6 d |  | cell growth | decreased |
